Experimental data collected from several papers.
Parts stem from different laboratories: compare values within a part only.

Set 1 — technique: RNA Bind-n-Seq; form: RNA; medium: in vitro; tested at: 365 nM; reference: no-protein control; reading: higher = stronger binding
Target: RNA binding protein fox-1 homolog 2, RRM domain, GST-SBP tag (RBFOX2, Homo sapiens, UniProt O43251-10, residues 100-194)
Setting: natural RNA segment, single round, ends assumed
All sequences stand within: GGGAGUUCUACAGUCCGACGAUC … UGGAAUUCUCGGGUGCCAA
Residues (chain): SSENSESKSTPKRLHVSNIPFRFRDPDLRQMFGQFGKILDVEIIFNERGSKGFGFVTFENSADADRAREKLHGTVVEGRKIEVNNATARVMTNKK
Oligonucleotide | RBNS enrichment (R)
GACUGCCAGGAUUCCUGAUAUGCCCUGGCUUUGGAGAGUCCCUAGGGAUGCCCACUCGGGGGUGUAGGGAAGACACUGGCUGUGCGUCCUUCUAGGAAGGGGCUUUCAGG | 0.338
GGCCUAGAUGUCGUGUUUUGGAUGCUGUGUUUUCAAUAAAUGCCUCUGGGGCCCUGCUUUUACCCGCUGGCGUCAGGUGCCGCGUCUUUCUUCUUUUUUCUUUCUUUCAG | 0.504
AUCGGAGCUCUUUCCUUUGAUAGAGAGAACAGCCCCAAUGAUCCUGGCUUUUUCACUGAACGUAUCAGAAUACAUGGAUGAAUUGGGGUAAAUAAGGUUUUAAUUCAGAU | 0.564
UAGUCUGUGAGGGAGGAACUCCCAGCAUCCCCAUUGCCCACAAAUGGAAUCCUCACUGUAUCCACUAGGAGAUUAGAAAUUAAGGUUUCUUCACUACUUCUAUGGUAGGG | 1.04
UGCUCUCAUUUGCAGUUUCUGUGUCAUGUUUGCUUCUUGAAUCUGAUUGACUAGAAUAUUUCUCCCCCCUGCCCCUUGAUGUGUGAUGUCACCACCUGGUCCUAAUUUAU | 0.598
UGGAAUUUGCUGUGCAGAGCCAUAAGCCUCCCAUUUUGUUAGCGUCAGCUAGGCCAAUAGGAACAGACCGGGACCUUGUCUCACACUGAUGAUACCUCACAUGUUGACCG | 0.285
AACAUUUUUGGAGGUAGCUUCGUGCAUCAUAAACAACUUUCGUGCUCGUGUCUGACUCGAGCGGUAUCAGAACAGGGCUGGGAUGGAGUCUUCGUGUUUUGCACCCUGUG | 1.91
CUCCCGAGAGGAACCAGCCCGGUAAGAGGGCACACGCUGAUGCGGCUUCCCGGUCCCUCCGCGUGUGCCGAUUCCAGAUGACCUUCCAGUGUCCCCAAGGUUCUUCCAUC | 0.213
GUAGGGAGGAAAACCUGUCAUUUUUGUUGUUUUGCCAGAAUGAAUGACGAUAACUCCUCCUGUUAACAAAACUAUACUUAAAGCAGUAGCAGUACUCUGCCAAUUUUAGA | 0.697
AGGACUCUGCUGGGUUGAAAUUUGCCGGGGAGGACUCUUGUCUCCCCCUCAGGAGUAUUUUUGUUGAGGCUUUCCUGGAGGUGAAGAAGCAAUUCCCAUUGCAGCAGGUU | 0.777
AAAUAACUCUUUACAAAUAAGGGUCGGGCACGGUGGCUCACGCCUGUAAUCCCAGCUCUUUGGGAGGCCGAGGUGGGCAGAUCACGAGGUCAGGAGAUCGAGACCAUCCU | 0.347
UCUGUUUGGAAGACCAGAAUGUGAAGACAAGUAGUAGAAGAAAAUGAAUGCUGCUGCUGAGACUGAAGACCAGUAUUUCAGAACUUUGAGAAUUGGAGAGCAGGCACAUC | 0.728

Set 2 — technique: protein binding microarray; form: double-stranded DNA, one strand shown; medium: in vitro; tested at: not given; reference: not given; reading: higher = stronger binding
Target: Histone acetyltransferase KAT6A, both winged helices, GST fusion (KAT6A, Homo sapiens, UniProt Q92794, residues 1-181)
Setting: 8-mer, flanks averaged, mean of 2 arrays, mostly near background
Construct (chain): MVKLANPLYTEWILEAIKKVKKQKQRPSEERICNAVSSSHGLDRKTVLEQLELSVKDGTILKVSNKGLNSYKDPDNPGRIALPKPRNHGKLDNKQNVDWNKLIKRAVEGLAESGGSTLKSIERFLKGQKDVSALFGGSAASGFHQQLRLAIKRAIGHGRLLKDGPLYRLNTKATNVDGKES
Oligonucleotide | E-score
AGTTCCCA | -0.0902
GGATTCAC | -0.0508
GCACGAGC | 0.0589
ATCATTCG | 0.00914
CTGGTCGA | -0.101
ACGGAGAA | 0.118
CACAGTCG | -0.0246
CCATAGAC | -0.124
GCATCGTA | 0.0517
ACCTTCCA | -0.0213
ATTGCCTC | -0.189
TCAGGAAA | -0.0613
TAGATATA | -0.0472
CGTAGCGC | 0.339
TATGAACA | -0.145
AGTGATTC | -0.102
AACCGTGC | 0.0494
GAAAAGAC | 0.00253
ACATTGGA | -0.0104
TGAGTCCA | -0.0759
CCTCATCC | -0.122

Set 3 — technique: universal PBM; form: double-stranded DNA, one strand shown; medium: in vitro; tested at: not given; reading: higher = stronger binding
Target: Sal-like protein 4, full length isoform B (SALL4, Homo sapiens, UniProt Q9UJQ4-2, residues 1-616)
Setting: 8-mer, flanks averaged, mean of replicates
Oligonucleotide | E-score
GCTGATTA | 0.0804
AGAGGCGG | -0.249
CCACGGGA | -0.232
CTGTTACA | 0.0429
TCTAGCAA | 0.046
TAGTAGCA | 0.0727
ACGAGACA | -0.0954
GCGGATAA | -0.139
CTTCTGAC | 0.0636
GTAATTCA | 0.201
AGTATTGA | 0.233
TGGAGCCA | -0.155
AGGGATTG | -0.131
GACCGGTC | -0.255
GCCGGTGA | -0.203
CACAAGTA | 0.0737
CCGGTTAG | -0.255
GTAATTGA | 0.174

Set 4 — technique: competition protein-binding microarray; form: double-stranded DNA, one strand shown; medium: in vitro; tested at: 2 µM; added: Cbf1 competitor, 0.05 µM; reading: higher = stronger binding; all sequences stand within: … GTCTTGATTCGCTTGACGCTGCTG
Target: Phosphate system positive regulatory protein PHO4, full length, GST-tagged (PHO4, Saccharomyces cerevisiae, UniProt P07270, residues 1-312)
Setting: whole 60-bp probe, lowest competitor level
Target sequence (chain): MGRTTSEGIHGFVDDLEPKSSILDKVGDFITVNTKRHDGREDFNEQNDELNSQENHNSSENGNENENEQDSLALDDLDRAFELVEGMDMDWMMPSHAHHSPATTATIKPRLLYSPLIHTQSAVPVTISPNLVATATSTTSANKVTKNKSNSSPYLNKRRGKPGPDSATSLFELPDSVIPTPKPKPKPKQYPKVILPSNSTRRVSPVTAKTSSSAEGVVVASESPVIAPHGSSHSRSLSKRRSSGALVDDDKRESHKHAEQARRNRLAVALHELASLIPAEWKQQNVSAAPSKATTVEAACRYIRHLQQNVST
Oligonucleotide | fluorescence intensity [a.u.]
TGGCATGAGTGGCAGCATGTGCCTCATATCCATTGG | 12700
ATTAGTAATAGCCATCACGTGATGGTCCCTGGAAAG | 12900
CTAACGAAGGTTTGCCTAGTGGGTGACAAGCCAAGT | 3870
AGAAAGGTAGTGTCCCACGTCAGTAGAACCATGCGC | 5910
GTCTTGTCTCATTGGTTGGTGGGTGTCCCCACTTCA | 5040
TGCCTTTTTCATTGTCATGTGGGTTTTGGAGAGCTT | 6790
TTGACCGATTTTCTGATCATGCAAAACTTTAGAGCT | 3940
GAGCAGTTCTGTAACCAGATCTCTTGTGTTGCTTGG | 2690
AAAGCGGTAATTTGTATGGTGGGTGCAGATATCTAT | 4190
CACCGTCTTCCGCCGCACGTGGATTCAGCGCGATGC | 18900
AGGAAACAATTGGTGAGCATGACAAACTTGTTTGGC | 4560
CCGGTAACCTACCGTCACGGCCAGATTTTTTCCAAG | 3150
CGGGGTTAAGTTTGTGAAGTGGGTGGCTTGCAGCAG | 4780
CAACGATATCTTTATCAGGTGATTCTTACGCGCCAG | 3210
AAAGCGGTAATTTTTCACGTGCCCTCACATATCTAT | 14700
TCATCGTCAGAACATCTCGTGACTCGAGCACTCGTC | 6850
CTGTGTTAACTTCAACACGTGAGGAATTTGCTTCAT | 16700

Set 5 — technique: RNA Bind-n-Seq; form: RNA; medium: in vitro; tested at: 200 nM; setting: whole 134-nt RNA, ends assumed; added: 150 mM KCl; reference: input library; reading: higher = stronger binding
Target: Ras GTPase-activating protein-binding protein 1, full length (G3BP1, Homo sapiens, UniProt Q13283)
Chain of UniProt Q13283 (whole entry, looked up): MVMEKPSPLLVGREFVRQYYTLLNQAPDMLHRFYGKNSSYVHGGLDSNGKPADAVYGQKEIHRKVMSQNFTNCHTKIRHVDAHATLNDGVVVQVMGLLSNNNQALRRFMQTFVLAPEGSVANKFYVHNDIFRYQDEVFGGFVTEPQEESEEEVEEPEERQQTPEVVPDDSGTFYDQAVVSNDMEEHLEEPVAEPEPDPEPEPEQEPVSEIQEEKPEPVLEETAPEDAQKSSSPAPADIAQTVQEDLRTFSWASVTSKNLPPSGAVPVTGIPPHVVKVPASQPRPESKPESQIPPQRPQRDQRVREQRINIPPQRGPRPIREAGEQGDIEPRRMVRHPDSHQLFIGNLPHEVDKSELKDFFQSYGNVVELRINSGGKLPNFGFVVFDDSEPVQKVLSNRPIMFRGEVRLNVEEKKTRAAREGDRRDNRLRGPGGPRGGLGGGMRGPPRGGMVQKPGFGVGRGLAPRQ
All sequences stand within: GGGAGUUCUACAGUCCGACGAUC … UGGAAUUCUCGGGUGUCAAGG
Oligonucleotide | log2 enrichment
AUUAAGGUCACCGUUGCAGGCCUGGCUGGAAAAGACCCAGUACAGUGUAGCCGUGAUGUGGUCAUUUGUCCUGAUGCCAGCCUUGAAGAU | -1.14
ACCAUGCAGGUGGGCAUCUUUGGGAAGUGGGGCAAGGGGGGCAUAGGGAGGGGGGUAACACUUUGGGAACAGGUGGUCCCAGGUCGUUUC | 0.965
GUCCUGUGCUACACAUCGUAUGUACCGAAUCGGGUUUUUGGGUUUUUGGGUUUUUGGGAAAGUAUUAUGUUACGCCGUUCGGAUCUGCAC | -0.431
UGGGAGGUGGAUUUUGUUUAUUUUUUUAGCUCAUUUCCAGGGGUGCGAAUUUUUUUUUAAUAUGUGUCAUGAAUAAAGUUGUUUUUGAAA | 0.772
ACCAUGCAGGUGGGCAUCUUUGGGAAGUGGGGCAAGGGGGGGAUAGAAAGGGGGGUAACACUUUGGGAACAGGUGGUCCCAGGUCGUUUC | 0.87
AAGUCCUGUGCUACACAUCGUAUGUACCGAAUCGGGGUGGGGAAAAAGGGGUGGGGAAAGUAUUAUGUUACGCCGUUCGGAUCUGCACUU | 0.628
AAGUCCUGUGCUACACAUCGUAUGUACCGAAUCGGUUUUUGGUUUUUUUGGAAAGGAAAGUAUUAUGUUACGCCGUUCGGAUCUGCACUU | -1.49
UCCUGUGCUACACAUCGUAUGUACCGAAUCGGGGAAAAAAAGGGGUGGGGUUUUUGGGGAAAGUAUUAUGUUACGCCGUUCGGAUCUGCA | 0.595
GUCCUGUGCUACACAUCGUAUGUACCGAAUCGGGUGGGAAAAAAAGGGUUUUUUUGGGAAAGUAUUAUGUUACGCCGUUCGGAUCUGCAC | -0.424
UCCUGUGCUACACAUCGUAUGUACCGAAUCAAAUUUUUAAAUUUUUUUAAAUUUUUAAAAAAGUAUUAUGUUACGCCGUUCGGAUCUGCA | -0.624
AGUCCUGUGCUACACAUCGUAUGUACCGAAUCGGGUUUUUGGGGUUUUUGGUUUUUGGAAAGUAUUAUGUUACGCCGUUCGGAUCUGCAC | -0.74
UCCUGUGCUACACAUCGUAUGUACCGAAUCGGGGUUUUUUGGUUUUUUGGGUUUUUUGGGAAAGUAUUAUGUUACGCCGUUCGGAUCUGC | -0.412
GCAGGAAGUAAAAACAAAUGGAAAUGCUUCGGAUAGUGGCAGGGGUGGGGGUUGCUAAGGAAAGGGGGGGAUGGGAGUGGGUAAAGAGUU | 0.874
UGCACUGACUGGUGGUGUCAACCCAUGGCUCAACUGGAAGCACUGUGGAAGAAGAUGGAGGGUGUGGUAAGUCCAUCAGACCUGGGACCG | -0.642

A few entries again (set 5):
Oligonucleotide | log2 enrichment
GUCCUGUGCUACACAUCGUAUGUACCGAAUCGGGUGGGAAAAAAAGGGUUUUUUUGGGAAAGUAUUAUGUUACGCCGUUCGGAUCUGCAC | -0.424
UGCACUGACUGGUGGUGUCAACCCAUGGCUCAACUGGAAGCACUGUGGAAGAAGAUGGAGGGUGUGGUAAGUCCAUCAGACCUGGGACCG | -0.642
AAGUCCUGUGCUACACAUCGUAUGUACCGAAUCGGUUUUUGGUUUUUUUGGAAAGGAAAGUAUUAUGUUACGCCGUUCGGAUCUGCACUU | -1.49
GCAGGAAGUAAAAACAAAUGGAAAUGCUUCGGAUAGUGGCAGGGGUGGGGGUUGCUAAGGAAAGGGGGGGAUGGGAGUGGGUAAAGAGUU | 0.874
UCCUGUGCUACACAUCGUAUGUACCGAAUCGGGGUUUUUUGGUUUUUUGGGUUUUUUGGGAAAGUAUUAUGUUACGCCGUUCGGAUCUGC | -0.412
AGUCCUGUGCUACACAUCGUAUGUACCGAAUCGGGUUUUUGGGGUUUUUGGUUUUUGGAAAGUAUUAUGUUACGCCGUUCGGAUCUGCAC | -0.74
GUCCUGUGCUACACAUCGUAUGUACCGAAUCGGGUUUUUGGGUUUUUGGGUUUUUGGGAAAGUAUUAUGUUACGCCGUUCGGAUCUGCAC | -0.431
UCCUGUGCUACACAUCGUAUGUACCGAAUCAAAUUUUUAAAUUUUUUUAAAUUUUUAAAAAAGUAUUAUGUUACGCCGUUCGGAUCUGCA | -0.624
AUUAAGGUCACCGUUGCAGGCCUGGCUGGAAAAGACCCAGUACAGUGUAGCCGUGAUGUGGUCAUUUGUCCUGAUGCCAGCCUUGAAGAU | -1.14
UGGGAGGUGGAUUUUGUUUAUUUUUUUAGCUCAUUUCCAGGGGUGCGAAUUUUUUUUUAAUAUGUGUCAUGAAUAAAGUUGUUUUUGAAA | 0.772
